Assay results collected from several papers.
Parts stem from different laboratories: compare values within a part only. Substitutions count along the parent as printed.

Study 1
Target: ABI1, truncated, D143A, DHFR fusion (Arabidopsis thaliana)
Technique: DHFR PCA, deep sequencing
Matrix: yeast
Notes: methotrexate growth selection, single substitutions
Together with: (+)-ABA 4.8 µM
Baseline: wild-type fitted maximum
Direction: higher = stronger binding
Endpoint: relative binding score
Parent: PYL1, truncated, DHFR fusion (Arabidopsis thaliana); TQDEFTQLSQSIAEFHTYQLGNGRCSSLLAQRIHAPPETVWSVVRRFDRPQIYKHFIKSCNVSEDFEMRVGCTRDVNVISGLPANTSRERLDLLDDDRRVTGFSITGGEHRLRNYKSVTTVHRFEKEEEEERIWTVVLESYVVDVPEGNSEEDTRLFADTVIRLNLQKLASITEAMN
Q19D: 76.4%
T120W: -5.64%
S117D: -27%
N165V: 3.7%
E109F: -0.569%
L138I: 26.3%
K116Y: -14.4%
P50Q: -7.89%
S63R: 69.7%
L20H: 77.1%
F124I: 84.1%
Q51C: 25%
P37S: 29.2%
A13Y: 41.6%
N77G: 61.5%
A35M: 2.4%
D65H: 67.9%

Study 2
Target: RNA binding protein fox-1 homolog 2, RRM domain, GST-SBP tag (RBFOX2, Homo sapiens, UniProt O43251-10, residues 100-194)
Technique: RNA Bind-n-Seq
Form: RNA
Matrix: in vitro
Tested at: 365 nM
Notes: natural RNA segment, single round, ends assumed
Baseline: no-protein control
Direction: higher = stronger binding
Endpoint: RBNS enrichment (R)
Construct (chain): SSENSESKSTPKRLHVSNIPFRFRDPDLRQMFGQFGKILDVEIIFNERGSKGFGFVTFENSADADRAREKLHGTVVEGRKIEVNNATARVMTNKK
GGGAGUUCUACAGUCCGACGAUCGCAAAACUAGGUGCUGUGGCCCCAGACUACCCAUCCUUAAAAUGAUCCUUGCCCAGCGGUGGGAGCUGGGAGACAGUGCAUGGGAGGGGCUCCCUGGCAUGCCUGCCCUAUGGAAUUCUCGGGUGCCAA: 2.22
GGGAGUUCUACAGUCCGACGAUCGAAGUUAGGAAAUUCAGUUUGUCUCUUACUUCUUGAAAAUGGCAGGGAGCAGCUGCAGCCCCUGACUUGUCUGGGGGGAUGUUUAGGAUAUGACAGAGGUUAGAGUCAGUUGGAAUUCUCGGGUGCCAA: 0.838
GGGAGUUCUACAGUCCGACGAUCGAUGCUUGUAAAUACUAUUUAUGUUUUUAAUUUUGUAAAAUAAAGAUUUCUUUUUAACCACUGGCAUUAAGGUUUGGUCUUUCAUAGCUAUGGAUUGCUGGCUCUGGAAGUGGAAUUCUCGGGUGCCAA: 2.6
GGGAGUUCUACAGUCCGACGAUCUGGACCUGUGAAGCCAUGGGCAGGUAGUGCCCUCUUGAGAGUCAUUUUAUUUGGCCACCUUCAGGUGAGACUAUCCAUAGACACAUGCUAGGAUAGGCCCCGCUGGGAGGUGGAAUUCUCGGGUGCCAA: 0.369
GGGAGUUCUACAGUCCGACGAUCUAAACCCUAAUGUUAGAUGUCAGUAUAAAGCCCUUAGAAUUUUUCCUCAAGGACCCCUUCUUCCUUUAGGCCUUUCUGUCUUGAUCUGUGCAUUAAGAAAUUUAAGUUUGUGGAAUUCUCGGGUGCCAA: 0.418
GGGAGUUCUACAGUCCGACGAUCCAAAGGAAGUAUGUAUUGCAUUAAUCAGGGCAUAACUAAUAUUCUCCUGUUCAGAAUAAUACUUAUUUACGUGUGAAAGCAACAUGGAUGUGAUUCCCAACACAGAAUUUUGGAAUUCUCGGGUGCCAA: 0.266
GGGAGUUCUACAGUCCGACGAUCUACAUCAUCGGAGGAGUCUGCUGUCCCUAACACAGAGGGAGACCUCGCUUUCCUACCCCAAGCAAGUAUUGGUGGCCAUGGCAGCGUGGCGAAGCCAUGCUGGGCGGGAGUGGAAUUCUCGGGUGCCAA: 0.167
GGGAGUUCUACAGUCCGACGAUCCAGCACAGCCUUUAUUGAGCUUUACAACUAACAACCUGAUAGUUGGCAGUUAAUUCACAGUUACAGAUAAUGCUUUUAUUUACAUAAAUAUACCAAGUAGUACCCUCUUAUGGAAUUCUCGGGUGCCAA: 0.544

Study 3
Target: RING finger protein unkempt homolog, zinc fingers 1-6, SBP tag (UNK, Homo sapiens, UniProt Q9C0B0, residues 30-357)
Chain of UniProt Q9C0B0 (30-357, looked up): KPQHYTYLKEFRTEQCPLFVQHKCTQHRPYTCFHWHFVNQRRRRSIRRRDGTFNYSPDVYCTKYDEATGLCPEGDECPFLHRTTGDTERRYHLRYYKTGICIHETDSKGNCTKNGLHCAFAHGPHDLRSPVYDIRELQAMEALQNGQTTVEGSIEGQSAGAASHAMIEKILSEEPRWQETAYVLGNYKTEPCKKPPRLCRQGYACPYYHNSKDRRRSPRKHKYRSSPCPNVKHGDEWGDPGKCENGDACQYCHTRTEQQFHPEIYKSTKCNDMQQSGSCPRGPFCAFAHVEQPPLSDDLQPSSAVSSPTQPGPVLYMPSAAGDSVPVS
Technique: RNA Bind-n-Seq
Form: RNA
Matrix: in vitro
Tested at: 100 nM
Notes: RNA with constant flanks, vertebrate orthologous sites, ends assumed
Baseline: input RNA pool
Direction: higher = stronger binding
Endpoint: bound/input enrichment
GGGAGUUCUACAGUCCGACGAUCAGAAACUUUUAGUCGUGAAUCUGAAGGUAGGAAUACGGGCCCAUGGUUAUCUUCCUCACUUAGAAAUAGAUGUACACCUUUGUUCUCUAGAAGGAGAAGAGAGGGAAGAGAUGAAUCUUCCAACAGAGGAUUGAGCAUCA: 0.806 ratio
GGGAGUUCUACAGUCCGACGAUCAAGUCGGUGGUUGUACAUUAUUUCAUUUAGAAAAUAUGAAAACUCAUUUUGUUUUGAAGAUAGGUAUUAAACUGAAAUAGCUAUUACGUUCUUGAAAAAUGGGGCAGGUGUGCCCUUCCCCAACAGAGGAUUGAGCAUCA: 0.32 ratio
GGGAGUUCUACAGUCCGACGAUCUUUUUUUCCAGGUGGGAUGUAGUGGAAAAGUCAUAGGAAUUGAUCACAUUAAAGAGCUAGUAGAUGACUCAAUAAACAACGUCAGAAAGGAUGACCCAACACUUUUGUCUUCAGGGAGAGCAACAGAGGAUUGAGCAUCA: 0.817 ratio
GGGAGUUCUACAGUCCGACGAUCUUGACCUUGUUUCUUUAUCUUCCUUUUUAUUUUCUUUCUUUUUCUUCGCUUUUUUUCUUUCUAGUGUUGUUACCCACGCCAUUUUACGUCUCCUUCACUGAAGGGCUAGAGUUUUAACUUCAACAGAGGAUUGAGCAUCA: 3.21 ratio
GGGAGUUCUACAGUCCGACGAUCCAGCUGAUUCACUCAUUGGGAGAGCUGCACAUAUAGCUGUUCUUGAUUCAGAAAUAUUUUUAGAGAAAUUCUUUCUGGUUGCUGCCCUUAAAUAUUUCCAAUAGGAUAAAAACACUGUUACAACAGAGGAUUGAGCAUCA: 0.808 ratio
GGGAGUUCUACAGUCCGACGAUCUAAUUGCCUAUAAUAAUGGAAACCAUUUUUAAAAUUUUUCAUUUCCCCCUUAGGCAUAAUUAGUCUUUUUUUCCCCAGGCAGAUCAUUCUGAGUGUGCGAGUGUGUGUGCACGUUACAGACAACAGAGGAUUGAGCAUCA: 0.719 ratio
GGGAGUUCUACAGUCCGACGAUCCCGAAAGGCCAAAUCCCCUCCUCCCUUCUACUGCUUCUACCAACUGGAAGCACAGAAAACUAGAAUUUCAUUUAUUUUGUUUUUAAAAAUAUACGUUGAUUUCUUGUAACAUCCAAUAGGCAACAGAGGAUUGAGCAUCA: 0.469 ratio

Study 4
Target: CCNB1, cyclin fold, Cln2 fusion (human)
Technique: yeast growth competition, sequencing
Matrix: yeast
Notes: weak parent motif
Baseline: not given
Direction: higher = stronger binding
Endpoint: normalised enrichment score
Parent: SAMHD1 docking peptide (human); ASKSRVQLFKDDP
R5E: 0.216
V6T: 0.217
S2M: 0.249
K3W: 0.359
D11I: 0.328
K10C: 0.28
D11K: 0.394
D12V: 0.674
D12M: 0.102
F9C: 0.125
D11G: 0.0458
F9Q: -0.00245
Q7Y: 0.286
K3A: 0.337
D12E: 0.484

Excerpt of the above (study 1):
N165V: 3.7%
E109F: -0.569%
L138I: 26.3%
K116Y: -14.4%
